Measured values collected from several papers.
Every numbered part comes from another study and shows a few of its results, in no order. Changes are numbered by the printed parent chain.
UniProt Q9FGV1, sequence (whole entry, looked up): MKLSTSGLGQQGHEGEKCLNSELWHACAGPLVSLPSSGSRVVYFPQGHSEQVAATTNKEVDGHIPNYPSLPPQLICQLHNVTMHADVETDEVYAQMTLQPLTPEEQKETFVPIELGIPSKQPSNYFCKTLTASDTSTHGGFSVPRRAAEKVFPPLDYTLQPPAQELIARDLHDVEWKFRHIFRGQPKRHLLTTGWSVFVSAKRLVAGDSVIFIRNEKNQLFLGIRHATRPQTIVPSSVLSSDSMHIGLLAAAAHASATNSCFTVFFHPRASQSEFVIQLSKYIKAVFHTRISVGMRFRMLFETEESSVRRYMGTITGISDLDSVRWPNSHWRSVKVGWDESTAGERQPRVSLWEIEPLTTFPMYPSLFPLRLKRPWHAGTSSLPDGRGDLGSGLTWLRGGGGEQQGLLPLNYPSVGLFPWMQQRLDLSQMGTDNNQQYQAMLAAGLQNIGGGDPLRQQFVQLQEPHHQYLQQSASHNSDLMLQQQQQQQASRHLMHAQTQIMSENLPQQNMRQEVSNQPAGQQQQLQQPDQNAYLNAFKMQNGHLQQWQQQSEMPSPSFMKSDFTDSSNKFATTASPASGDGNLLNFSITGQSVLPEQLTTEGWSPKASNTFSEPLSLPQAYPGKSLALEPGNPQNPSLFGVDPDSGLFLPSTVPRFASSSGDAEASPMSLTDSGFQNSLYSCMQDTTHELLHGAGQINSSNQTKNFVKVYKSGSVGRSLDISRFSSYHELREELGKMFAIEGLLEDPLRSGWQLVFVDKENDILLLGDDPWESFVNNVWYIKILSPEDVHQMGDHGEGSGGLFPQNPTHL
UniProt Q9M1R4, sequence (whole entry, looked up): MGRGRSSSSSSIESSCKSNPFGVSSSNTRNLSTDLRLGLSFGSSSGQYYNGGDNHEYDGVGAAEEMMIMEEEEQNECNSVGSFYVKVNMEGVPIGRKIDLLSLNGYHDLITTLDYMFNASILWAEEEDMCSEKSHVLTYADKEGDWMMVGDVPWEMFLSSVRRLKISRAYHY
UniProt Q9ZTX9, sequence (whole entry, looked up): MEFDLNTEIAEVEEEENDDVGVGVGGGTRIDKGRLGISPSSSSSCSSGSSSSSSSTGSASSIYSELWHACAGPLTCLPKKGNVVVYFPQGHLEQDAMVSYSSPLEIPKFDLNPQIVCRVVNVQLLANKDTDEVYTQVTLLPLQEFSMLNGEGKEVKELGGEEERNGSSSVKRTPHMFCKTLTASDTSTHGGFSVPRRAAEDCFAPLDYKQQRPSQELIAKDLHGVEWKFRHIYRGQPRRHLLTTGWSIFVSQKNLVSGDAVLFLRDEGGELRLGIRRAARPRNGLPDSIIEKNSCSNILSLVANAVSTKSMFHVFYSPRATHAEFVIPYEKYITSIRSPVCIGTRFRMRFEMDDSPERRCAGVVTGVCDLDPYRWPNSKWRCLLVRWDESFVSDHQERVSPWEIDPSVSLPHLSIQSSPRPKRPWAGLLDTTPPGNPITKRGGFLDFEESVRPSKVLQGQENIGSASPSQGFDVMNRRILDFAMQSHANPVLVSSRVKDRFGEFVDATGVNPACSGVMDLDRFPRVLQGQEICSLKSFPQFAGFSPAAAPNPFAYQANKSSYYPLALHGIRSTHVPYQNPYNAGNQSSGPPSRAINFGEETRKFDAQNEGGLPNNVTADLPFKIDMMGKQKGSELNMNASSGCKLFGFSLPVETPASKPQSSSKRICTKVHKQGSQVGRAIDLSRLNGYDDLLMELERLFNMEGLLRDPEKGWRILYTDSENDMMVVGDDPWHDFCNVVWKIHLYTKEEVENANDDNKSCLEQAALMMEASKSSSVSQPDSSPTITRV
UniProt Q9XID4, sequence (whole entry, looked up): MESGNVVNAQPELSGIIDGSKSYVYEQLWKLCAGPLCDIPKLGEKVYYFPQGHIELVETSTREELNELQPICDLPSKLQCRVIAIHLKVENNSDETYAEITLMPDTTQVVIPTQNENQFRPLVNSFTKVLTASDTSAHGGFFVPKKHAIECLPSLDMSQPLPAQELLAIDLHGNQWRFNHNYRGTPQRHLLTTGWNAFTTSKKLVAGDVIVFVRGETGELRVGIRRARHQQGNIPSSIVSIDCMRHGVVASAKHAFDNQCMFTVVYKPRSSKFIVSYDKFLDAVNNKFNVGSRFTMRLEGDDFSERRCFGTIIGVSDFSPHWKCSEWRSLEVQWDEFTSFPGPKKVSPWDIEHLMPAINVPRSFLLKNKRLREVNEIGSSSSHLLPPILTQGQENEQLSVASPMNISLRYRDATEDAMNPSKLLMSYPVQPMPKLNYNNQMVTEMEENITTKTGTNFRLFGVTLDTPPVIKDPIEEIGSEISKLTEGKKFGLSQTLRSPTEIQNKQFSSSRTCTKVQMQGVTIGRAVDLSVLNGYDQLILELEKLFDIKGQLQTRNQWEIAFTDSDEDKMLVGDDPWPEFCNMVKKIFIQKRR
UniProt Q93WC4, sequence (whole entry, looked up): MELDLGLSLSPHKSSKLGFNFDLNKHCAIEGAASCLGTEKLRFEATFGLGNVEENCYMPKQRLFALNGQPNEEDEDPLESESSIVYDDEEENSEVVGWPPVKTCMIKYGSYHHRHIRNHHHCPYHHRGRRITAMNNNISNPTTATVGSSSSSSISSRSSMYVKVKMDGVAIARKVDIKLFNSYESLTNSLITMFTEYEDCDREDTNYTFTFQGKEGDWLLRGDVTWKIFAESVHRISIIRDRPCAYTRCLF
UniProt Q9XFM0, sequence (whole entry, looked up): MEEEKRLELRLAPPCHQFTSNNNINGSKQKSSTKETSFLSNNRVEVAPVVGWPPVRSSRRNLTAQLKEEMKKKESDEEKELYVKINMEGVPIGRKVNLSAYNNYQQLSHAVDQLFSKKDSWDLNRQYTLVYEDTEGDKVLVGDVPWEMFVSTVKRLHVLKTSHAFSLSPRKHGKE
UniProt Q84WU6, sequence (whole entry, looked up): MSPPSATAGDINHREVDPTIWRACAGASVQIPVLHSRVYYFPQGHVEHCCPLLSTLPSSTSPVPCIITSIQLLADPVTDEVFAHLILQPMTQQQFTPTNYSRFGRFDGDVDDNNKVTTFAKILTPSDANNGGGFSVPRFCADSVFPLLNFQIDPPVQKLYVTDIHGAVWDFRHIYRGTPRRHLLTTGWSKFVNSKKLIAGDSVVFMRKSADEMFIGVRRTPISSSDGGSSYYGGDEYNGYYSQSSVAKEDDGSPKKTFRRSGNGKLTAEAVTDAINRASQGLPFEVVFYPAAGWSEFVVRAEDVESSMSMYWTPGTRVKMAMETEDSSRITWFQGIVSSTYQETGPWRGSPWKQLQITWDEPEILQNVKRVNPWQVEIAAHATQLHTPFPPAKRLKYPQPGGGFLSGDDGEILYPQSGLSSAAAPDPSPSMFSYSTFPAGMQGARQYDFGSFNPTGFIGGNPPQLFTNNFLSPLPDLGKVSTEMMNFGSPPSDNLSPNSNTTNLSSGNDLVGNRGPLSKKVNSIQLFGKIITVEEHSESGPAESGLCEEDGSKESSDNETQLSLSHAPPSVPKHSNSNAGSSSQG

Sample 1 — technique: RNA Bind-n-Seq; form: RNA; matrix: in vitro; tested at: 365 nM; relative to: no-protein control; reading: higher = stronger binding
Target: RNA binding protein fox-1 homolog 2, RRM domain, GST-SBP tag (RBFOX2, Homo sapiens, UniProt O43251-10, residues 100-194)
Setting: natural RNA segment, single round, ends assumed
Constant ends, left off below: GGGAGUUCUACAGUCCGACGAUC … UGGAAUUCUCGGGUGCCAA
Target sequence (chain): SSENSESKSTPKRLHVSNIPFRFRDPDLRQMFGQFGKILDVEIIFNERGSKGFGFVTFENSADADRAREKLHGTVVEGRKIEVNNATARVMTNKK
`GAAAGCACAAUAAAAAUGAGUAACAGAAAAAGCACAUAUACUAGCCUAACAGAUUGGCUUGUUUUAAAGCAAAGACUGAAUUGAAGGUUACAUGUUUUAGGAUAAACUAA` — result for “RBNS enrichment (R)”: 0.624.
Under “RBNS enrichment (R)”, `AGGGCUCUACUUAAAGCACAUGAUGUAGAGCAACUCGCCUCUGCCCUGGGUCUGCAGAAGGCUGAGGACUUUUGGUUAAAAGCAAUCCUCAUGAAAACACCCCACCCUGC` is recorded as 1.28.
Under “RBNS enrichment (R)”, `CCAUUGAUUUUGUUUGAUUUCUGAUGUGGAAGUGCGGUCAUUCCUGGUUUAACUCACAGCAACUUUUAAUUGGUCUAAGAUGAGGGCAUCCCUCAGUUGGUCCAUUGUAA` is recorded as 0.647.
`CCAAAUAGUGAUAUAUAAGAGAAAAUCUGUGCUUCAGAGUUUGAUCAGGGCCAUCUCUCCCAACUCUGCUGGAACUGAGAGAAUGCACCUGAUGUUGUCUCCAUUUUAGA`: “RBNS enrichment (R)” 0.624.
Under “RBNS enrichment (R)”, `GCUUUCUGCUUUCAAAAUUGAGGAAAAUAAACCAGAAAAUGCCAAAAGUACUGUUUUAGCAGUGCACGUUCACUUCCACAGAGACUUUUAGGUGGGACUGUUCCAAGACA` is recorded as 2.66.
`UAGUCCAGCAUCACGGAGAAAGGCCAAUCCUCUUAGGAGCAUUGGACAGCUCAACCAUGUUGUCAUCUUACCACCAGAGGGCACAGCAGCCCUCUAAGGGUUUUCUCCUC` — result for “RBNS enrichment (R)”: 0.218.
Under “RBNS enrichment (R)”, `GGCUCGUGAAUCCACUUAGAAUUCUUGGCUUGUGUCGCAUACUGGGUGUCACGGCACACAUUUACUCUGCAUUGUCCCCGUCUUUCCCAUCGCCUAGCGUUUGGGGAGGA` is recorded as 0.406.
Under “RBNS enrichment (R)”, `UGAUGAUAUGUUAGUUUUGUUGUUCUUUGGGGUUUUAUUCUUCCAGGUAUGUUAUGCACUACAGCCUGAUCUUUUCAGUCUAAGACAGCAUGGCUUCACUUUCCUGUGUU` is recorded as 0.6.

Sample 2 — Molecule: B1 (IAA13); technique: two-hybrid; reading: higher = firmer interaction
B1: IAA13 (Arabidopsis thaliana, UniProt Q38831); chain MITELEMGKGESELELGLGLSLGGGTAAKIGKSGGGGAWGERGRLLTAKDFPSVGSKRAADSASHAGSSPPRSSSQVVGWPPIGSHRMNSLVNNQATKSAREEEEAGKKKVKDDEPKDVTKKVNGKVQVGFIKVNMDGVAIGRKVDLNAHSSYENLAQTLEDMFFRTNPGTVGLTSQFTKPLRLLDGSSEFVLTYEDKEGDWMLVGDVPWRMFINSVKRLRVMKTSEANGLAARNQEPNERQRKQPV
The positive tests was 0 (ARF4 660-788 (Arabidopsis thaliana, UniProt Q9ZTX9); relative to: out of 4 tests).
ARF12 500-593 (Arabidopsis thaliana, UniProt Q9XID4); relative to: out of 4 tests — positive tests: 0.
The positive tests was 1 (IAA28 (Arabidopsis thaliana, UniProt Q9XFM0); relative to: out of 2 tests).
ARF17 (Arabidopsis thaliana, UniProt Q84WU6); weak activation fusion; relative to: out of 4 tests — positive tests: 1.
The positive tests was 3 (IAA30 (Arabidopsis thaliana, UniProt Q9M1R4); weak activation fusion; relative to: out of 4 tests).
For IAA29 (Arabidopsis thaliana, UniProt Q93WC4); relative to: out of 4 tests: positive tests read 0.
ARF8 699-811 (Arabidopsis thaliana, UniProt Q9FGV1); relative to: out of 4 tests — positive tests: 4.

Sample 3 — technique: protein-binding microarray; form: double-stranded DNA, one strand shown; matrix: in vitro; tested at: 0.8 µM; setting: whole 60-bp probe, no competitor; reading: higher = stronger binding; constant ends, left off below: … GTCTTGATTCGCTTGACGCTGCTG
Target: Centromere-binding protein 1, full length, N-terminal tag (CBF1, Saccharomyces cerevisiae, UniProt P17106, residues 1-351)
UniProt P17106, sequence (whole entry, looked up): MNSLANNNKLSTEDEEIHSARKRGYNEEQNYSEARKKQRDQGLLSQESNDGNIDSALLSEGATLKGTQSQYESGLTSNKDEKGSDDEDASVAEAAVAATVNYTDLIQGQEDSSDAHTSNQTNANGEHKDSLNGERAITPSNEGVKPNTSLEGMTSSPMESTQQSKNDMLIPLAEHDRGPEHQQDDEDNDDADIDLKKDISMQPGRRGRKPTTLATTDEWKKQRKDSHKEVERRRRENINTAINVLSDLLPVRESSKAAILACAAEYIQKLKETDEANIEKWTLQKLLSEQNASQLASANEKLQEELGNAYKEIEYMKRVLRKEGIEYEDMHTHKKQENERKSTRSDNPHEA
For `CTAGACGCAAGACACCACCAGAACCAAGAGCATTTC`, the fluorescence intensity was 520 a.u.
The fluorescence intensity of `GAATGCCAGAGTGTCCGCATGATTAATACTTTTTAG` is reported as 550 a.u.
For `GAAGTGACTGGAGAGATCGTGACACTGCTGATGTAG`, the fluorescence intensity was 739 a.u.
`CCTAACTACTATAGAGGCATGACATAGCTTCGTACA` has a fluorescence intensity of 559 a.u.
`GAAAGAGAAAAAAAGAATGATCACAAGAAAACTTAG` gave a fluorescence intensity of 572 a.u.
`CTATTAGGAAACAATCACGAGACGATAACGACGTTC` has a fluorescence intensity of 1670 a.u.
The fluorescence intensity of `CTATACATGACGTGAAATGTGCACGGGGAAATGTTC` is reported as 826 a.u.
For `CTATTTGTTTTCCTTCACATGATGAAGAAGGTTTTC`, the fluorescence intensity was 1020 a.u.

Sample 4 — target: CCND2, cyclin fold, Cln2 fusion (human); technique: yeast growth competition, sequencing; matrix: yeast; setting: weak parent motif; relative to: not given; reading: higher = stronger binding
Parent: viral docking peptide; KGVKRKLFAEDSS; partner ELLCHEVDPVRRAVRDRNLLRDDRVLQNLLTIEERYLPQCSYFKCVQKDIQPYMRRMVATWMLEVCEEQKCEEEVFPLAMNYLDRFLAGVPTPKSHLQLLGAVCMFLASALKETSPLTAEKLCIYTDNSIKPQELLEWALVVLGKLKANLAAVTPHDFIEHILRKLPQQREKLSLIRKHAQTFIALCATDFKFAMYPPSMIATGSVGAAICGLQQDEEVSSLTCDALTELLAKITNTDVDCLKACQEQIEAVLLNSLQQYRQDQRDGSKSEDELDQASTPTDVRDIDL
`KGVKRKLYAEDSS [F8Y]`: “normalised enrichment score” -0.225.
For `KGVKRKLIAEDSS [F8I]`, “normalised enrichment score” read 0.0729.
For `KGVKRKLFAEQSS [D11Q]`, “normalised enrichment score” read -0.444.
Under “normalised enrichment score”, `KGVKRKRFAEDSS [L7R]` is recorded as 0.15.
For `KTVKRKLFAEDSS [G2T]`, “normalised enrichment score” read 0.394.
For `KGVKRKLFAEKSS [D11K]`, “normalised enrichment score” read 0.098.
For `KGVKRKKFAEDSS [L7K]`, “normalised enrichment score” read 0.612.
`KGVKCKLFAEDSS [R5C]`: “normalised enrichment score” 0.205.
`KGVKRKLFAEDRS [S12R]`: “normalised enrichment score” 0.15.
`KGVKRKLFAHDSS [E10H]` — result for “normalised enrichment score”: -0.216.
For `KGFKRKLFAEDSS [V3F]`, “normalised enrichment score” read 0.322.
`KCVKRKLFAEDSS [G2C]` — result for “normalised enrichment score”: 0.312.
For `KGVKRKLFAETSS [D11T]`, “normalised enrichment score” read -0.238.
Under “normalised enrichment score”, `KGAKRKLFAEDSS [V3A]` is recorded as 0.426.
`KGVKRKLFEEDSS [A9E]` — result for “normalised enrichment score”: 0.542.
`KGVWRKLFAEDSS [K4W]` — result for “normalised enrichment score”: -0.412.
Under “normalised enrichment score”, `KGVKRKLFAEDQS [S12Q]` is recorded as -0.736.
Under “normalised enrichment score”, `KGVKAKAFAEDSS [R5A L7A]` is recorded as 0.0379.
`KGVKRKLWAEDSS [F8W]` — result for “normalised enrichment score”: -0.336.
For `KGVGRKLFAEDSS [K4G]`, “normalised enrichment score” read 0.0936.
`KGVKRKLFATDSS [E10T]` — result for “normalised enrichment score”: -0.388.

Excerpt of the above (sample 4):
`KGVKRKLFEEDSS [A9E]` — result for “normalised enrichment score”: 0.542.
Under “normalised enrichment score”, `KGAKRKLFAEDSS [V3A]` is recorded as 0.426.
`KGVWRKLFAEDSS [K4W]` — result for “normalised enrichment score”: -0.412.
`KGVKCKLFAEDSS [R5C]`: “normalised enrichment score” 0.205.
